Measured values gathered from unrelated publications.
Each line is one published result; not all experiments were run side by side. Several values in a cell are separate wells, animals, samples, runs or records. Numbers after ± are the reported error.

CCCCc1nc(Cl)c(CO)n1Cc1ccc(-c2ccccc2-c2nn[nH]n2)cc1 — log2 fold change (human PBMC; RNA-seq, measured: CD302 mRNA; 10 µg/mL, 24 h; reference: untreated control): -1.52
Cn1cc(Nc2nccc(-c3ccc4c(c3)CN(C3COC3)CC[C@H]4NC(=O)c3cn(C(C)(C)C)nn3)n2)cn1 — pathway activation z-score (mouse splenic B cells; measured: TNFR2 signalling; 30 mg/kg, IgD-activated in vivo; reference: vehicle, direction not given): 0
Cc1ccccc1Cn1cc(-c2cccc(NC(=O)Nc3ccc(F)cc3)c2)nn1 — mRNA level (Huh-7; RT-PCR, measured: oxidative stress and autophagy genes; 10 µM, 72 h): no effect
Cc1c(C(=O)O)ccc2c3n(nc12)[C@@H]1[C@H](C3)N(CC2CC2)[C@@]2(C(=O)Nc3cc(Cl)ccc32)[C@H]1c1cccc(Cl)c1F — GI50 (SW982 (MDM2 non-amplified); cell proliferation, alamarBlue; 120 h): 0.008 µM
CCCCCCCCc1ccc(CCC(N)(CO)CO)cc1 — inhibition (BT-12; cell viability, MTT; 10 µM, 72 h): 94.4%
O=C(CCCN1C(=O)c2cccc3cccc(c23)C1=O)NO — viability (HBL-1; 0.5 µM, 120 h): 117%
CCCCC(CC)CNC(=N)NC(=N)NCCCCCCNC(=N)NC(=N)NCC(CC)CCCC.Cl.Cl (centres unmarked) — inhibition (BT-12; cell viability, MTT; 10 µM, 72 h): 95.2%
CC[C@H](C)n1cc(C)c2c(C(=O)NCc3c(C)cc(C)[nH]c3=O)cc(-c3ccc(N4CCNCC4)nc3)cc21 — viability (HBL-1; 0.1 µM, 120 h): 137%
C=CC(=O)N1[C@@H](c2ccc3c(c2)OCO3)c2[nH]c3ccccc3c2C[C@H]1C(=O)NC — neuron degeneration (rat DRG neurons; 10 µM, 48 h, together with: vincristine 40 nM): 23.1% and 19.2%
CCCNC(=O)Nc1ccc(Oc2ncnc3cc(OC)c(OC)cc23)cc1Cl — inhibition (HeLa expressing Ub(G76V)-GFP; Ub(G76V)-GFP degradation, cycloheximide chase; 12 µM): 1%
CC(C)C[C@H](NC(=O)[C@@H](NC(=O)c1cccc(-c2ccccc2)n1)[C@@H](C)O)B(O)O — inhibition (BT-12; cell viability, MTT; 10 µM, 72 h): 94.4%
N#Cc1cnc2cnc(NCc3cccnc3)cc2c1Nc1ccc(F)c(Cl)c1 — inhibition (HeLa expressing Ub(G76V)-GFP; Ub(G76V)-GFP degradation, cycloheximide chase; 12 µM): 100%
Cn1cc(-c2ccc(-c3cncc(Cl)c3N3CCC4(CCNC4=O)CC3)cc2)cn1 — log2 fold change (COLO 205; gene expression, microarray, measured: BHLHE40 mRNA; concentration not given, 2 h; reference: untreated cells): 2.11
O=P(O)(O)C(O)(Cn1ccnc1)P(=O)(O)O — viability (MDA-MB-231; AlamarBlue; 15 µM, 24 h; reference: control): 95 ± 5%
CC/C(=N\NC(=O)NCc1cccc(O)c1)c1ccc(O)c(C)c1O — log ratio (SK-OV-3; gene expression, microarray, measured: ENPP2; 10 µM, 24 h; reference: DMSO): -3.72
CN1CCc2c(c3ccccc3n2Cc2ccc(C(=O)NO)cc2)C1 — viability (HBL-1; 0.5 µM, 120 h): 128%
O=C(/C=C/C=C/C=C/C1CCCCC1)NC1=C[C@@](O)(/C=C/C=C/C=C/C(=O)NC2=C(O)CCC2=O)[C@@H]2O[C@@H]2C1=O — GI50 (PANC-1; cell growth, CellTiter-Glo; 78 h): 16.3 µM
CCCCc1nc2cc(/C=C/C(=O)NO)ccc2n1CCN(CC)CC — viability (HBL-1; 0.1 µM, 120 h): 51.4%
CC(C)(C)C(=O)OCOP(=O)(COCCn1cnc2c(N)ncnc21)OCOC(=O)C(C)(C)C — inhibition (BT-12; cell viability, MTT; 10 µM, 72 h): 90.9%
Cc1nn(-c2nc3ccc(Cl)c(Cl)c3[nH]2)c(O)c1C1OC(=O)c2ccccc21 (centres unmarked) — inhibition (RAW-ISG; IFN luciferase reporter; 40 µM, together with: HT-DNA): 96.8% and 96.9% and 96.7%
CCN1/C(=C/C(C)=O)Sc2ccc(OC)cc21 — inhibition (HeLa expressing Ub(G76V)-GFP; Ub(G76V)-GFP degradation, cycloheximide chase; 12 µM): 25%
COc1cc(/C=C/C(=O)N2CCC=CC2=O)cc(OC)c1OC — mRNA level (MDA-MB-468; quantitative RT-PCR, measured: NDUFA6; 30 µM, 8 h; reference: untreated cells): 84 ± 22.1%
Cc1cc(Nc2ncc(Cl)c(Nc3ccccc3S(=O)(=O)C(C)C)n2)c(OC(C)C)cc1C1CCNCC1 — log2 fold change (CLB-BAR; phosphoproteomics LC-MS/MS, measured: PDCD4 phosphorylation; 200 nM, 60 min; reference: untreated): -3.62
CO[C@H]1[C@H](O[C@H]([C@H]2O[C@@H](n3ccc(=O)[nH]c3=O)[C@H](O)[C@@H]2O)[C@H](NCCCNC(=O)[C@@H](NC(=O)[C@@H](NC(=O)N[C@H](C(=O)O)C(C)C)[C@@H]2CCN=C(N)N2)[C@@H](OC(=O)CCCCCCCCCCCCN(O)C(=N)N)C(C)C)C(=O)O)O[C@H](CN)[C@H]1O — migration inhibition (MDA-MB-231; Boyden chamber; 2.5 µM, 24 h): 98%
[Cl][64Cu][Cl] — membrane-bound fraction (BxPC-3; 37 °C): 6.2 ± 0.2%
O=C1c2ccccc2-c2n[nH]c3cccc1c23 — inhibition (HeLa expressing Ub(G76V)-GFP; Ub(G76V)-GFP degradation, cycloheximide chase; 12 µM): 39%
O=C([O-])CN(CCN(CC(=O)[O-])Cc1cc(CCC(=O)NCCCCCC(=O)NCCCC[C@H](NC(=O)N[C@@H](CCC(=O)O)C(=O)O)C(=O)O)ccc1[O-])Cc1cc(CCC(=O)O)ccc1[O-].[68Ga+3].[OH3+] — internalized activity (LNCaP; 25 nM, 1 h, 4 °C): 0.03 ± 0.02 %AD/mg protein
CCOc1cc2ncnc(Nc3cccc(Br)c3)c2cc1OCC — inhibition (HeLa expressing Ub(G76V)-GFP; Ub(G76V)-GFP degradation, inhibitor, cycloheximide chase; 12 µM): 25%
CCn1cc(-c2cc(Cn3ccoc3=N)cc3c2CCN([C@@H](C)c2cc(OC)ccn2)C3=O)c(C(F)(F)F)n1 — EC50 (EOL1; cell growth, inhibitor; 120 h): 0.126 µM
Nc1cccc(-c2cc3c(Oc4cccc(O)c4)ncnc3[nH]2)c1 — inhibition (HeLa expressing Ub(G76V)-GFP; Ub(G76V)-GFP degradation, cycloheximide chase; 12 µM): 11%
CCC1=C[C@@H]2CN(C1)Cc1c([nH]c3ccccc13)[C@@](C(=O)OC)(c1cc3c(cc1OC)N(C)[C@H]1[C@@](O)(C(=O)OC)[C@H](OC(C)=O)[C@]4(CC)C=CCN5CC[C@]31[C@@H]54)C2 — inhibition (BT-12; cell viability, MTT; 10 µM, 72 h): 86.7%
O=c1ncn2nc(Sc3ccc(F)cc3F)ccc2c1-c1c(Cl)cccc1Cl — beat rate (iCell cardiomyocytes hiPSC-derived; impedance; concentration not given, 2 h; reference: vehicle): 105%
CCOC(=O)CCNc1cc(N2CCc3ccccc3CC2)nc(-c2cccnc2)n1 — viability (HBL-1; 0.5 µM, 120 h): 108%
CCCOc1nc(-c2cccc(O)c2)cc(-c2cc3ccccc3nc2N2CCOCC2)c1C#N — EC50 (WI-38; cell viability, MTT; 72 h): 0.121 ± 0.0001 µM
CCCCN1C[C@H](O)[C@@H](O)[C@@H](O)[C@H]1CO — IC50 (sample BC patient fibroblasts; Gb3 level lowering, LC-MS/MS, measured: Gb3 d18:1/24:0; 216 h): 22.2 µM
CC(C)NCC(O)c1ccc(O)c(O)c1 (centres unmarked) — sarcomere length (mouse ventricular cardiomyocytes; dose not given, 0.395 s): 1.8 µm
O=C(NO)c1cccc(C(=O)NCCc2ccccc2)c1 — viability (HBL-1; 0.1 µM, 120 h): 122%
COc1cnc2cccc(N3CCc4c(cc(Cn5ccnc5C)cc4-c4cn(C)nc4C(F)(F)F)C3=O)c2c1 — EC50 (LK-2; cell growth, inhibitor; 120 h): > 30 µM
CCCCCOc1ccc(/C=C\c2cccc(O)c2C(=O)O)cc1 — viability (HBL-1; 1 µM, 120 h): 100%
C=CC1=C(C)c2cc3[n-]c(cc4nc(cc5[n-]c(cc1n2)c(C)c5C=C)C(C)=C4CCC(=O)O)c(CCC(=O)O)c3C.[Zn+2] — fold change (SH-SY5Y; RNA-seq, measured: TMC6 mRNA; 5 µM, 5 h; reference: untreated cells): 1.58
O=C(/C=C/c1cccc(S(=O)(=O)Nc2ccccc2)c1)NO — inhibition (BT-12; cell viability, MTT; 10 µM, 72 h): 94.2%
CCn1cc(-c2cc(Cn3ccnc3)cc3c2CCN([C@H](c2cc(OC)ccn2)C2CC2)C3=O)c(C(F)(F)F)n1 — EC50 (SNU-886; cell growth, inhibitor; 120 h): 6.97 µM
O=C(O)CCCc1ccccc1 — viability (HBL-1; 0.1 µM, 120 h): 122%
CC(Nc1nc(N2CCCC2)nc2ccccc12)c1ccccc1 (centres unmarked) — cells with nuclear RelA (HeLa Kyoto; RelA nuclear import, high content imaging; 5.01 µM, 3 h, together with: 1 µM PMA, 60 min): 81.2% and 75.4%

For quick reference, copied from above:
O=C1c2ccccc2-c2n[nH]c3cccc1c23 — inhibition (HeLa expressing Ub(G76V)-GFP; Ub(G76V)-GFP degradation, cycloheximide chase; 12 µM): 39%
O=C([O-])CN(CCN(CC(=O)[O-])Cc1cc(CCC(=O)NCCCCCC(=O)NCCCC[C@H](NC(=O)N[C@@H](CCC(=O)O)C(=O)O)C(=O)O)ccc1[O-])Cc1cc(CCC(=O)O)ccc1[O-].[68Ga+3].[OH3+] — internalized activity (LNCaP; 25 nM, 1 h, 4 °C): 0.03 ± 0.02 %AD/mg protein
CCOc1cc2ncnc(Nc3cccc(Br)c3)c2cc1OCC — inhibition (HeLa expressing Ub(G76V)-GFP; Ub(G76V)-GFP degradation, inhibitor, cycloheximide chase; 12 µM): 25%
CCn1cc(-c2cc(Cn3ccoc3=N)cc3c2CCN([C@@H](C)c2cc(OC)ccn2)C3=O)c(C(F)(F)F)n1 — EC50 (EOL1; cell growth, inhibitor; 120 h): 0.126 µM
Nc1cccc(-c2cc3c(Oc4cccc(O)c4)ncnc3[nH]2)c1 — inhibition (HeLa expressing Ub(G76V)-GFP; Ub(G76V)-GFP degradation, cycloheximide chase; 12 µM): 11%
CCC1=C[C@@H]2CN(C1)Cc1c([nH]c3ccccc13)[C@@](C(=O)OC)(c1cc3c(cc1OC)N(C)[C@H]1[C@@](O)(C(=O)OC)[C@H](OC(C)=O)[C@]4(CC)C=CCN5CC[C@]31[C@@H]54)C2 — inhibition (BT-12; cell viability, MTT; 10 µM, 72 h): 86.7%
O=c1ncn2nc(Sc3ccc(F)cc3F)ccc2c1-c1c(Cl)cccc1Cl — beat rate (iCell cardiomyocytes hiPSC-derived; impedance; concentration not given, 2 h; reference: vehicle): 105%
